Measured values of several laboratories.
Each line is one published result; not all experiments were run side by side.
CA9: Carbonic anhydrase 9 (CA9, Homo sapiens, UniProt Q16790)
Tumor necrosis factor receptor superfamily member 9/Nectin-4: Tumor necrosis factor receptor superfamily member 9/Nectin-4 (Homo sapiens, UniProt Q07011+Q96NY8)
Sequence of UniProt Q07011 (whole entry, looked up): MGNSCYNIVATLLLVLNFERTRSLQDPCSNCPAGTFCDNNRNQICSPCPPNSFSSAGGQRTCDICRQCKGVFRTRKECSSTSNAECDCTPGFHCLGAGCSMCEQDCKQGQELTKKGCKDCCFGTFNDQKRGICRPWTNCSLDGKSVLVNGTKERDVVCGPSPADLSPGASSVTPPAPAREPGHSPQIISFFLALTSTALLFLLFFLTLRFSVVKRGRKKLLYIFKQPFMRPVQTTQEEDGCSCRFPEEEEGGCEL
Sequence of UniProt Q96NY8 (whole entry, looked up): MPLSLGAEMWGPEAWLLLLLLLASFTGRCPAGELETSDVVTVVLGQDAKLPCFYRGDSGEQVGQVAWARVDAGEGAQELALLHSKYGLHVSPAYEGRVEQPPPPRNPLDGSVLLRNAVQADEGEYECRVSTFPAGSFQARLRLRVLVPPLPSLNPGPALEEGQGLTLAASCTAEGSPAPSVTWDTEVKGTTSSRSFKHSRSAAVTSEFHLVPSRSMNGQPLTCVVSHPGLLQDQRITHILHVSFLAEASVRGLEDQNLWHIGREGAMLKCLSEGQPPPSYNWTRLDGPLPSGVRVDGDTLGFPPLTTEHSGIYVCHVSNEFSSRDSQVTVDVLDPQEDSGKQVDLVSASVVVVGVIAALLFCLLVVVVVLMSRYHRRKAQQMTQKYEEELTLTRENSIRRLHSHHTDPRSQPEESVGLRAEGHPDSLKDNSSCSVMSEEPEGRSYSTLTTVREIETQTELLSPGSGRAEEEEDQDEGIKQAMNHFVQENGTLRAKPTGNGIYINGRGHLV
Glutamate receptor ionotropic, kainate 1 del402-416: Glutamate receptor ionotropic, kainate 1 (Rattus norvegicus, UniProt P22756, del402-416)
Sequence of UniProt P22756 (whole entry, unmodified, looked up): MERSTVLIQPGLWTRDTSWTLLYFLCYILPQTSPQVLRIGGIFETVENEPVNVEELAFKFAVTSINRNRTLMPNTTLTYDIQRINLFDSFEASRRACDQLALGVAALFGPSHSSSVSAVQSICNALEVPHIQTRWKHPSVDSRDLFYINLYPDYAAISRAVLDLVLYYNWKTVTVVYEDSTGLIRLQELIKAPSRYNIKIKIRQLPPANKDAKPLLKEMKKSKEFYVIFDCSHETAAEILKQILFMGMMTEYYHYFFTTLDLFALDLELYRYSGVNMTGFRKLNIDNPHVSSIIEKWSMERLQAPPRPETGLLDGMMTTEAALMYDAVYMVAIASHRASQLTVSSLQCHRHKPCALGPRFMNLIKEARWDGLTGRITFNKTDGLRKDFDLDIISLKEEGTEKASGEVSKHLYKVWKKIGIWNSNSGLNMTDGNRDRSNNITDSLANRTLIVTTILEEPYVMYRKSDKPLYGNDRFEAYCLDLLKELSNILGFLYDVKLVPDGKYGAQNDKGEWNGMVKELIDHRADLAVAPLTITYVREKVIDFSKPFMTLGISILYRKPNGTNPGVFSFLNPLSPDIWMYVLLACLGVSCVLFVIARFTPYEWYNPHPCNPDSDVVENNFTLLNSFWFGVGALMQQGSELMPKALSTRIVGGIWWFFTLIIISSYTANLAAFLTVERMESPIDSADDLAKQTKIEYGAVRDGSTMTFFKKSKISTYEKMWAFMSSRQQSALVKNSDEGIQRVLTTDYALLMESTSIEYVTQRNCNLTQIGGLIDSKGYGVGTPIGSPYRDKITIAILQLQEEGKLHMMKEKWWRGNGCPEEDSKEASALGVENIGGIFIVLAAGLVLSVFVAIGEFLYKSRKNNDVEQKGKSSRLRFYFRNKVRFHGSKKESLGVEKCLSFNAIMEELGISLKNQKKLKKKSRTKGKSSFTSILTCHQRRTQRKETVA
Sequence of UniProt Q5U3Y7 (whole entry, looked up): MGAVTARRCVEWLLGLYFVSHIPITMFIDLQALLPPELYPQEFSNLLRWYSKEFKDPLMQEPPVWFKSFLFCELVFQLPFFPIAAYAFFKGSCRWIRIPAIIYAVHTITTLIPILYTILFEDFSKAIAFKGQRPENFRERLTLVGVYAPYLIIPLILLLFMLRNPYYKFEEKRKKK
Sequence of UniProt P50613 (whole entry, looked up): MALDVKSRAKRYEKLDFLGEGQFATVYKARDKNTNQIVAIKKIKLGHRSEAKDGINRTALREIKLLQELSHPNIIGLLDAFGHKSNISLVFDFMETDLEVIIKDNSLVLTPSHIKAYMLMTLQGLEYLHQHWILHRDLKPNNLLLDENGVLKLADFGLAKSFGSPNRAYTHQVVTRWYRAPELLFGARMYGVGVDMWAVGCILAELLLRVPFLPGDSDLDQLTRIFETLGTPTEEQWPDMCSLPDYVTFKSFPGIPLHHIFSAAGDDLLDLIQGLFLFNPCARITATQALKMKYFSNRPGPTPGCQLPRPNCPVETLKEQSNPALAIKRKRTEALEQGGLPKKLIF
Sequence of UniProt O43193 (whole entry, looked up): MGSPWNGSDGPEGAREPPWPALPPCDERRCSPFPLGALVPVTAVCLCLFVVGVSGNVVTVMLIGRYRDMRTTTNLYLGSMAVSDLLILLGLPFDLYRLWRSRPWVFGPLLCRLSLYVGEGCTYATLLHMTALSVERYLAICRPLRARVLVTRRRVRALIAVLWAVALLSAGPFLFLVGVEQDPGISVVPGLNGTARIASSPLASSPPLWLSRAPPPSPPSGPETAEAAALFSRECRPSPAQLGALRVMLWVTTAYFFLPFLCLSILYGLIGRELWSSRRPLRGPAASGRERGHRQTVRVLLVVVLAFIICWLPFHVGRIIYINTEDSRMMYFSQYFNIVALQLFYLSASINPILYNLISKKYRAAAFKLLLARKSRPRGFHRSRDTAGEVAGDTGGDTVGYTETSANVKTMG
Sequence of UniProt P19490 (whole entry, looked up): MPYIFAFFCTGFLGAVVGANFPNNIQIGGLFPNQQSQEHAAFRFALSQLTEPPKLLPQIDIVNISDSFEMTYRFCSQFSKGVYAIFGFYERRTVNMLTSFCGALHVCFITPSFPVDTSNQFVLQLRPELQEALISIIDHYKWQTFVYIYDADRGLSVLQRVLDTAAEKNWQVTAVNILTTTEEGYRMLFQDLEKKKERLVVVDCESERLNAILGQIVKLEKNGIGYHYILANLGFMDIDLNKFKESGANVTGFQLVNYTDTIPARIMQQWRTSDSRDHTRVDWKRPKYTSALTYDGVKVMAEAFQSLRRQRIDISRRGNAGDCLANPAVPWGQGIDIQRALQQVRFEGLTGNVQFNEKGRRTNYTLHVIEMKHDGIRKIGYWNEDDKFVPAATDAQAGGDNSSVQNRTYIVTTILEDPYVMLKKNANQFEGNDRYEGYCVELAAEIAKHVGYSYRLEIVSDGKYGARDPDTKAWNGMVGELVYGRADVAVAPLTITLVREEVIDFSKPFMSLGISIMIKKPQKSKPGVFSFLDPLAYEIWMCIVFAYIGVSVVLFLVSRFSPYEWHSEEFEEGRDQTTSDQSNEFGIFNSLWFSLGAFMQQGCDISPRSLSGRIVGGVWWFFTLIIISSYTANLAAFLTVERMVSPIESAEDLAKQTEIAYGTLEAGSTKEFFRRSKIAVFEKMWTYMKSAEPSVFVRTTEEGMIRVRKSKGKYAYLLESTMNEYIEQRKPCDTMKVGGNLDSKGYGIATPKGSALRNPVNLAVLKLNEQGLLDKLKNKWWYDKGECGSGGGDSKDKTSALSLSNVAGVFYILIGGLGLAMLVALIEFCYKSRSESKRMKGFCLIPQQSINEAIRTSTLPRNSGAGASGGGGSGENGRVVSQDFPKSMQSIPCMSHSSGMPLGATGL

SMILES = COc1cccc(NC(=O)Nc2ccc3c(c2)C=CCP(=O)(O)O3)c1; target or system = CA9; endpoint = Ki; value = 53.3 nM
SMILES = CCCC[C@@H]1NC(=O)[C@H](Cc2ccc(O)cc2)NC(=O)[C@@H]2CCCN2C(=O)[C@H](CC(=O)O)NC(=O)[C@H](C)NC(=O)[C@H](Cc2ccccc2)NC(=O)[C@@H]2CSCCC(=O)N3CN(CN(C3)C(=O)CCSC[C@@H](C(=O)N[C@@H](C)C(N)=O)NC1=O)C(=O)CCSC[C@H](NC(=O)[C@H](C)NC(C)=O)C(=O)N[C@@H]([C@@H](C)CC)C(=O)N[C@@H](CCC(=O)O)C(=O)N[C@@H](CCC(=O)O)C(=O)N[C@H](CCCCNC(=O)CCc1cn(CCOCCOCCOCCOCCOCCC(=O)N[C@H]3CSCCC(=O)N4CN5CN(C4)C(=O)CCSC[C@H](NC(=O)[C@@H](CC(=O)O)NC(=O)[C@H](Cc4cccc6ccccc46)NC(=O)[C@@H]4CCCN4C3=O)C(=O)N[C@@H](CCSC)C(=O)N[C@@H](CCCCNC(=N)N)C(=O)N[C@@H](CC(=O)O)C(=O)N[C@@H](Cc3c[nH]c4ccccc34)C(=O)N[C@@H](CO)C(=O)N[C@@H]([C@@H](C)O)C(=O)N3CCC[C@H]3C(=O)N3C[C@H](O)C[C@H]3C(=O)N[C@@H](Cc3c[nH]c4ccccc34)C(=O)N[C@H](C(N)=O)CSCCC5=O)nn1)C(=O)N[C@@H](CCC(N)=O)C(=O)N[C@@H](Cc1ccc(O)cc1)C(=O)N2; target or system = Tumor necrosis factor receptor superfamily member 9/Nectin-4; assay = reporter gene, agonist; system = HT-1376 coculture with reporter cells; endpoint = EC50; value = 2.42 nM
SMILES = CCN[C@H]1C[C@H](C)S(=O)(=O)c2sc(S(N)(=O)=O)cc21; target or system = human coronavirus OC43; assay = virus-induced cell killing; system = MRC-5; setting = screen; endpoint = maximum inhibition; value = 20.2%
SMILES = O=C(Nc1ccc2c(c1)C=CCP(=O)(O)O2)c1ccc2ccccc2c1; target or system = CA9; endpoint = Ki; value = 20.1 nM
SMILES = NC(CC1(C(=O)O)CC2OC(CO)C(O)C(N)C2O1)C(=O)O (centres unmarked); target or system = Glutamate receptor ionotropic, kainate 1 del402-416; assay = [3H]kainate displacement; system = HEK-293T/17 membranes; endpoint = Ki; value = 7.2 nM
SMILES = O=C(Nc1ccc(Br)cc1)Nc1ccc2c(c1)C=CCP(=O)(O)O2; target or system = CA9; endpoint = Ki; value = 36.8 nM
SMILES = NC(CC1(C(=O)O)CC2OC(CO)C(O)C(O)C2O1)C(=O)O (centres unmarked); target or system = Glutamate receptor ionotropic, kainate 1 del402-416; assay = [3H]kainate displacement; system = HEK-293T/17 membranes; endpoint = Ki; value = 59 nM
SMILES = CCCC[C@@H]1NC(=O)[C@H](Cc2ccc(O)cc2)NC(=O)[C@@H]2CCCN2C(=O)[C@H](CC(=O)O)NC(=O)[C@H](C)NC(=O)[C@H](Cc2ccccc2)NC(=O)[C@@H]2CSCCC(=O)N3CN(CN(C3)C(=O)CCSC[C@@H](C(=O)N[C@@H](C)C(N)=O)NC1=O)C(=O)CCSC[C@H](NC(C)=O)C(=O)N[C@@H](CC(C)(C)C)C(=O)N1CCC[C@H]1C(=O)N[C@@H](CCC(=O)O)C(=O)N[C@H](CCCCNC(=O)CCc1cn(CCOCCOCCCOCCOCCOCCOCCOCCOCCOCCOCCNC(=O)CCOCC(COCCC(=O)NCCOCCOCCOCCOCCOCCOCCOCCOCCOCCOCCn3cc(CCC(=O)NCCCC[C@H]4NC(=O)[C@H](CCC(=O)O)NC(=O)[C@@H]5CCCN5C(=O)[C@H](CC(C)(C)C)NC(=O)[C@@H](NC(C)=O)CSCCC(=O)N5CN6CN(C5)C(=O)CCSC[C@H](NC(=O)[C@H](Cc5ccc(O)cc5)NC(=O)[C@@H]5CCCN5C4=O)C(=O)N[C@@H](Cc4ccccc4)C(=O)N[C@@H](C)C(=O)N[C@@H](CC(=O)O)C(=O)N4CCC[C@H]4C(=O)N[C@@H](Cc4ccc(O)cc4)C(=O)N[C@@H](CCCC)C(=O)N[C@H](C(=O)N[C@@H](C)C(N)=O)CSCCC6=O)nn3)(COCCC(=O)NCCOCCOCCOCCOCCOCCOCCOCCOCCOCCOCCn3cc(CCC(=O)NCCCC[C@H]4NC(=O)[C@H](CCC(=O)O)NC(=O)[C@@H]5CCCN5C(=O)[C@H](CC(C)(C)C)NC(=O)[C@@H](NC(C)=O)CSCCC(=O)N5CN6CN(C5)C(=O)CCSC[C@H](NC(=O)[C@H](Cc5ccc(O)cc5)NC(=O)[C@@H]5CCCN5C4=O)C(=O)N[C@@H](Cc4ccccc4)C(=O)N[C@@H](C)C(=O)N[C@@H](CC(=O)O)C(=O)N4CCC[C@H]4C(=O)N[C@@H](Cc4ccc(O)cc4)C(=O)N[C@@H](CCCC)C(=O)N[C@H](C(=O)N[C@@H](C)C(N)=O)CSCCC6=O)nn3)COCCC(=O)NCCOCCOCCOCCOCCOCCOCCOCCOCCOCCOCCn3cc(CCC(=O)NCCC(=O)N[C@H]4CSCCC(=O)N5CN6CN(C5)C(=O)CCSC[C@H](NC(=O)[C@@H](CC(=O)O)NC(=O)[C@H](Cc5cccc7ccccc57)NC(=O)[C@@H]5CCCN5C4=O)C(=O)N[C@@H](CCSC)C(=O)N[C@@H](CCCCNC(=N)N)C(=O)N[C@@H](CC(=O)O)C(=O)N[C@@H](Cc4c[nH]c5ccccc45)C(=O)N[C@@H](CO)C(=O)N[C@@H]([C@@H](C)O)C(=O)N4CCC[C@H]4C(=O)N4C[C@H](O)C[C@H]4C(=O)N[C@@H](Cc4c[nH]c5ccccc45)C(=O)N[C@H](C(N)=O)CSCCC6=O)nn3)nn1)C(=O)N1CCC[C@H]1C(=O)N[C@@H](Cc1ccc(O)cc1)C(=O)N2; target or system = Tumor necrosis factor receptor superfamily member 9/Nectin-4; assay = reporter gene, agonist; system = HT-1376 coculture with reporter cells; endpoint = EC50; value = 0.17 nM
SMILES = COCC1OC2CC(CC(N)C(=O)O)(C(=O)O)OC2C(O)C1O (centres unmarked); target or system = Gria1 (Rattus norvegicus, UniProt P19490); assay = [3H]AMPA displacement; system = HEK-293T/17 membranes; endpoint = Ki; value = > 10000 nM
SMILES = COc1cc(Nc2ncc(F)c(Nc3ccc4c(n3)NC(=O)C(C)(C)O4)n2)cc(OC)c1OC; target or system = Motilin receptor (MLNR, Homo sapiens, UniProt O43193); endpoint = IC50; value = > 10000 nM
SMILES = Cc1cccc(C)c1N1C(=O)[C@H](CO)NC2(CCN(C)CC2)C1=O; target or system = Tmem97 (Rattus norvegicus, UniProt Q5U3Y7); endpoint = Ki; value = > 10000 nM
SMILES = CCCC[C@@H]1NC(=O)[C@H](Cc2ccc(O)cc2)NC(=O)[C@@H]2CCCN2C(=O)[C@H](CC(=O)O)NC(=O)[C@H](C)NC(=O)[C@H](Cc2ccccc2)NC(=O)[C@@H]2CSCCC(=O)N3CN(CN(C3)C(=O)CCSC[C@@H](C(=O)N[C@@H](C)C(N)=O)NC1=O)C(=O)CCSC[C@H](NC(C)=O)C(=O)N[C@@H](CC(C)(C)C)C(=O)N1CCC[C@H]1C(=O)N[C@@H](CCC(=O)O)C(=O)N[C@H](CCCCNC(=O)CCc1cn(CCOCCOCCOCCOCCOCCC(=O)NCCCC[C@H]3NC(=O)[C@H](Cc4cccc5ccccc45)NC(=O)[C@@H]4CCCN4C(=O)[C@@H](NC(C)=O)CSCCC(=O)N4CN5CN(C4)C(=O)CCSC[C@H](NC3=O)C(=O)N[C@@H](CCSC)C(=O)N[C@@H](CCCCNC(=N)N)C(=O)N[C@@H](CCC(=O)O)C(=O)N[C@@H](Cc3c[nH]c4ccccc34)C(=O)N[C@@H](CO)C(=O)N[C@@H]([C@@H](C)O)C(=O)N3CCC[C@H]3C(=O)N3C[C@H](O)C[C@H]3C(=O)N[C@@H](Cc3c[nH]c4ccccc34)C(=O)N[C@H](C(N)=O)CSCCC5=O)nn1)C(=O)N1CCC[C@H]1C(=O)N[C@@H](Cc1ccc(O)cc1)C(=O)N2; target or system = Tumor necrosis factor receptor superfamily member 9/Nectin-4; assay = reporter gene, agonist; system = HT-1376 coculture with reporter cells; endpoint = EC50; value = 1.17 nM
SMILES = C[C@H]1CN(c2n[nH]c3nc(N[C@H]4CC[C@H](NS(=O)(=O)CCC(F)(F)F)CC4)ncc23)CCO1; target or system = CDK7 (Homo sapiens, UniProt P50613); assay = competitor, Kinobeads competition; system = HEK293, K562, placenta extract; endpoint = IC50; value = 2400 nM
SMILES = CC(=O)N[C@@H](CSC(=S)Nc1ccc(NC(=S)SC[C@H](NC(C)=O)C(=O)O)cc1)C(=O)O.O; target or system = human coronavirus OC43; assay = virus-induced cell killing; system = MRC-5; setting = screen; endpoint = maximum inhibition; value = 14.8%

For quick reference, copied from above:
SMILES = COc1cc(Nc2ncc(F)c(Nc3ccc4c(n3)NC(=O)C(C)(C)O4)n2)cc(OC)c1OC; target or system = Motilin receptor (MLNR, Homo sapiens, UniProt O43193); endpoint = IC50; value = > 10000 nM
